Experimental data from different studies.
A part holds a random share of what one study measured. “And” joins repeats or separate records; there may be more than shown. Positions count from the first letter of the parent shown.

Set 1
Target: Ras GTPase-activating protein-binding protein 1, full length (G3BP1, Homo sapiens, UniProt Q13283)
Sequence of UniProt Q13283 (whole entry, looked up): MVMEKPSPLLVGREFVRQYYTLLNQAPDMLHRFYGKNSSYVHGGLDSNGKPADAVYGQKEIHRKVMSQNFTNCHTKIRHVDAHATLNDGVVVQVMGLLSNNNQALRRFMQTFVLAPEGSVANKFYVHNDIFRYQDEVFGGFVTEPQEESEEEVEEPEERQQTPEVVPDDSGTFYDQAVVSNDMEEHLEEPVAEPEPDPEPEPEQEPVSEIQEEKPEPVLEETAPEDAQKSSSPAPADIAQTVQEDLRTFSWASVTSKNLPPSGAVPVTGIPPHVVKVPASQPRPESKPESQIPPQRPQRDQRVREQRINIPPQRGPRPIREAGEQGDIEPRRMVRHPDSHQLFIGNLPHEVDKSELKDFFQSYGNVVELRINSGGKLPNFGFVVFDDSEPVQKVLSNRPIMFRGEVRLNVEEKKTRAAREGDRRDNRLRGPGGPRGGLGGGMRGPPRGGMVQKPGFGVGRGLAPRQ
Technique: RNA Bind-n-Seq
Molecule type: RNA
Medium: in vitro
Concentration: 200 nM
Setting: whole 134-nt RNA, ends assumed
Together with: 150 mM KCl
Reference: input library
Reading: higher = stronger binding
| Strand | log2 enrichment |
| --- | --- |
| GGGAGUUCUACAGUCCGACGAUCCACAGACAACACGCACCCACACAGACACAGAGGGAAGGGGUUGGGAUGGGGACAGGGUGCACAGCAGGGCGGGGUUGGACCCCAGCCCCUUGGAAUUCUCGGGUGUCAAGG | 1.8 |
| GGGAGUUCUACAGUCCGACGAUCCAAGUCCUGUGCUACACAUCGUAUGUACCGAAUCGGAAAAAAAGGAGGUUUUUGGAAAGUAUUAUGUUACGCCGUUCGGAUCUGCACUUCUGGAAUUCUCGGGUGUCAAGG | -1.06 |
| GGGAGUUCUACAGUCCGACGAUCCUGUGCUACACAUCGUAUGUACCGAAUCGGGGAAAAAAAGGGGUUUGGGGUUUUUUUGGGGAAAGUAUUAUGUUACGCCGUUCGGAUCUGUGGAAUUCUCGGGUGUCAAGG | -0.0572 |
| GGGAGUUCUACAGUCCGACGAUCUCCCCAGGGCCUGGCCUACUCAAUCUCUCCCACCUCAUCCUCUGGCAUGGACGCAGUCAGGGAGUCUGCUCCAAGCAGACACUGGUGGUCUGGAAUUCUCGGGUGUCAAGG | -0.976 |
| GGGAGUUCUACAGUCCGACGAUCGCAGGAAGUAAAAACAAAUGGAAAUGCUUCGGAUAGUGGCAGGGGUGGGGGUUGCUAAGGAAAGGGUUGGAUGGGAGUGGGUAAAGAGUUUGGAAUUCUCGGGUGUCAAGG | 0.87 |
| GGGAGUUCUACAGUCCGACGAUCUGGCUGCAGGCGCACCCCGGCAGGAUUUUGCCUCCGCUGUCGCCCCCGCAGCACCGCUACUCGGAGGGCGAGCGGACCUCCCUGGAGAAGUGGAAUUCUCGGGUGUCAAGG | -0.593 |
| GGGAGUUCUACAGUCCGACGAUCGGAGUGCCGUGAGCAGGCCGCGGGAACGUCGCCGUCACCUUGUCUCGGGGCCUCGGCGCUGCUUCCCGCCAAAACACGUUUACCGCGCGCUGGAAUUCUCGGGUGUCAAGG | -1.8 |
| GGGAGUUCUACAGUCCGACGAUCCUCAAGUCCUGUGCUACACAUCGUAUGUACCGAAUCGGUGGUUUUUGGAAAGGAAAGUAUUAUGUUACGCCGUUCGGAUCUGCACUUCCAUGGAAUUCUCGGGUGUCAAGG | -0.301 |
| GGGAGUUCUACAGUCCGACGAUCGUCCUGUGCUACACAUCGUAUGUACCGAAUCGGGGUUUGGGGUUUGGGGAAAAAGGGGAAAGUAUUAUGUUACGCCGUUCGGAUCUGCACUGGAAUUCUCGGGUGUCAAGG | 0.436 |

Set 2
Target: TAR DNA-binding protein 43, full length, His tag (TARDBP, Homo sapiens, UniProt Q13148, residues 1-414)
Technique: RNA Bind-n-Seq
Molecule type: RNA
Medium: in vitro
Concentration: 20 nM
Setting: 6-mer, flanks averaged, single round
Together with: 150 mM LiCl
Reference: input library
Reading: higher = stronger binding
| Strand | 6-mer enrichment (R) |
| --- | --- |
| AACCUC | 0.842 |
| AAUGUA | 1.03 |
| AUCGUC | 0.995 |
| CCGCCA | 0.962 |
| UUGAGU | 1.22 |
| CCCUUU | 1.24 |
| ACUAGG | 0.886 |
| CUGUGU | 1.28 |
| UCUGUU | 1.05 |

Set 3
Target: CCND3, cyclin fold, Cln2 fusion (human)
Technique: yeast growth competition, sequencing
Medium: yeast
Setting: weak parent motif
Reference: not given
Reading: higher = stronger binding
Starting sequence: PLK5 docking peptide (human); IFRKVGQRLLTQC; partner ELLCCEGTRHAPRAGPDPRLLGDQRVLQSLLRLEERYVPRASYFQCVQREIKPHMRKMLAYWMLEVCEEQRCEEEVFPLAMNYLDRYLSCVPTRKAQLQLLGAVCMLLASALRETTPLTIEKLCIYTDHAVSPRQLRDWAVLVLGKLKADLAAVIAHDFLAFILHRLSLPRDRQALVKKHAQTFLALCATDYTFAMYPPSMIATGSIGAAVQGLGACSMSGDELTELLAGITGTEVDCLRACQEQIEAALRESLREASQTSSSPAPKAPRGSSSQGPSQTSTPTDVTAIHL
| Substitution | normalised enrichment score |
| --- | --- |
| IFRKVAQRLLTQC [G6A] | -0.0879 |
| IFRKVGQALLTQC [R8A] | 0.25 |
| IFRKVGQRLATQC [L10A] | 0.074 |
| IFAKVGQRLLTQC [R3A] | 0.191 |
| IFRKVGQRLLTAC [Q12A] | -0.057 |
| IFRKVGQRALTQC [L9A] | 0.53 |
| IFRKVGQRLLAQC [T11A] | 0.532 |

Further values, each from its own experiment
| Substance | target | assay | test system | conditions | scale | measurement | value |
| --- | --- | --- | --- | --- | --- | --- | --- |
| PhoQ, residues 284 288 289 292 302 303 AMDMFI | PhoP, residues 12 14 15 18 19 LWHCS (Escherichia coli, UniProt P23836) | Sort-seq, measured: YFP reporter | E. coli | PhoQ-PhoP variant library, together with: 10 µM Mg2+ | reference: high Mg2+ state, higher = stronger signaling | fold induction | 0.629 and 0.728 |

A few entries again (set 1):
| Strand | log2 enrichment |
| --- | --- |
| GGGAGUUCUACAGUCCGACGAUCCUCAAGUCCUGUGCUACACAUCGUAUGUACCGAAUCGGUGGUUUUUGGAAAGGAAAGUAUUAUGUUACGCCGUUCGGAUCUGCACUUCCAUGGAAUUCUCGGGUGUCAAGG | -0.301 |
| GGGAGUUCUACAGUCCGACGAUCGCAGGAAGUAAAAACAAAUGGAAAUGCUUCGGAUAGUGGCAGGGGUGGGGGUUGCUAAGGAAAGGGUUGGAUGGGAGUGGGUAAAGAGUUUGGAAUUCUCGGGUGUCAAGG | 0.87 |
| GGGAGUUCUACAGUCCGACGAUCGUCCUGUGCUACACAUCGUAUGUACCGAAUCGGGGUUUGGGGUUUGGGGAAAAAGGGGAAAGUAUUAUGUUACGCCGUUCGGAUCUGCACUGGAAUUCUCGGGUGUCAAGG | 0.436 |
